Assay results pooled from the literature.
A part holds a random share of what one study measured. Values joined by “and” are separate records of one study, mostly repeats; a detail may differ.
Chain of UniProt P10721 (whole entry, unmodified, looked up): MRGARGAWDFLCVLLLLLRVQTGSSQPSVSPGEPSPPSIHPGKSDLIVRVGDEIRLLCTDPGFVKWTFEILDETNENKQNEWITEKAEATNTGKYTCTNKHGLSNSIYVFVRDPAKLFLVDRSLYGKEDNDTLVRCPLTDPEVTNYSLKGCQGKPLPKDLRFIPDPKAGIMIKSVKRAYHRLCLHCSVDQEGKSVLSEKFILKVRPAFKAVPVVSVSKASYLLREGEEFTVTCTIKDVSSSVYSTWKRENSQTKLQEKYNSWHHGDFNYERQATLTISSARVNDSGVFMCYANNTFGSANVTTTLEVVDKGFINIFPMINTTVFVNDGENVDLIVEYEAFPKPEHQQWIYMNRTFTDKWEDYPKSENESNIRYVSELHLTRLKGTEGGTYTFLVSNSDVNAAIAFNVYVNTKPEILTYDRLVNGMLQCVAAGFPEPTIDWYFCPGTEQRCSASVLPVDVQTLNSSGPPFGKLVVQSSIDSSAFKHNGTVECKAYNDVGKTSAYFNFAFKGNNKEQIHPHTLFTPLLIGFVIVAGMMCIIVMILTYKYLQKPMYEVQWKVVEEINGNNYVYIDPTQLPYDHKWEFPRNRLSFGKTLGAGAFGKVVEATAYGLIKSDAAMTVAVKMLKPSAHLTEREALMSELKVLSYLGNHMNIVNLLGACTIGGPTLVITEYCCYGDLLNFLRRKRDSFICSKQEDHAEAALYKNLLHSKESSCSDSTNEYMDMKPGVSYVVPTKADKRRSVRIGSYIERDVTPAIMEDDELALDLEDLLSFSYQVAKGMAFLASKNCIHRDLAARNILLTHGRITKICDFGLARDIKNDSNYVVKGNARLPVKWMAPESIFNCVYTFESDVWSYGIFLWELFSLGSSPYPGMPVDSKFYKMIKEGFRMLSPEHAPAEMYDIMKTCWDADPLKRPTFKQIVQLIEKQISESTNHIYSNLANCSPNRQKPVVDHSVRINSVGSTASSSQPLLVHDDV
Chain of UniProt Q99808 (whole entry, looked up): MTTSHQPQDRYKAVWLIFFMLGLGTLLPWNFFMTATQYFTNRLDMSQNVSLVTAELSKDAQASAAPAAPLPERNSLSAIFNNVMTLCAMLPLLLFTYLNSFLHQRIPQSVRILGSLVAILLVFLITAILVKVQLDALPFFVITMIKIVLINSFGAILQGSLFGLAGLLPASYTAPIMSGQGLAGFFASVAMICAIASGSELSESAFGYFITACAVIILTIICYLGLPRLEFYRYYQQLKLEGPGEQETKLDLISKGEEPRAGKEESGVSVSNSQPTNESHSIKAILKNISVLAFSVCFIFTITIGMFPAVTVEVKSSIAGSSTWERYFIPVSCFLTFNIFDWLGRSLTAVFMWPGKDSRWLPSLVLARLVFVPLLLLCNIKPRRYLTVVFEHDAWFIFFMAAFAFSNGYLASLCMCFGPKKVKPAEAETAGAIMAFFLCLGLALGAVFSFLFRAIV
Chain of UniProt P0C264 (whole entry, looked up): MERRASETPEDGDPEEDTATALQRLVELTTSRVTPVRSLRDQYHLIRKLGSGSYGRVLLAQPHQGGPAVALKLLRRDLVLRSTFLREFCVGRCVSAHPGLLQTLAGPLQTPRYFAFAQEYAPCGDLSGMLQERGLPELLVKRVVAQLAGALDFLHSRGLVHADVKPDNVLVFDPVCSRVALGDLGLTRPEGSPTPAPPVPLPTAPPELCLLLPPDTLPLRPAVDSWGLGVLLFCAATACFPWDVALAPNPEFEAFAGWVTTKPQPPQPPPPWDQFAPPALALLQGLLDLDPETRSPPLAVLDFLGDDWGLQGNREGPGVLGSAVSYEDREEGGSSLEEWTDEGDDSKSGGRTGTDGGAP
Chain of UniProt Q13177 (whole entry, looked up): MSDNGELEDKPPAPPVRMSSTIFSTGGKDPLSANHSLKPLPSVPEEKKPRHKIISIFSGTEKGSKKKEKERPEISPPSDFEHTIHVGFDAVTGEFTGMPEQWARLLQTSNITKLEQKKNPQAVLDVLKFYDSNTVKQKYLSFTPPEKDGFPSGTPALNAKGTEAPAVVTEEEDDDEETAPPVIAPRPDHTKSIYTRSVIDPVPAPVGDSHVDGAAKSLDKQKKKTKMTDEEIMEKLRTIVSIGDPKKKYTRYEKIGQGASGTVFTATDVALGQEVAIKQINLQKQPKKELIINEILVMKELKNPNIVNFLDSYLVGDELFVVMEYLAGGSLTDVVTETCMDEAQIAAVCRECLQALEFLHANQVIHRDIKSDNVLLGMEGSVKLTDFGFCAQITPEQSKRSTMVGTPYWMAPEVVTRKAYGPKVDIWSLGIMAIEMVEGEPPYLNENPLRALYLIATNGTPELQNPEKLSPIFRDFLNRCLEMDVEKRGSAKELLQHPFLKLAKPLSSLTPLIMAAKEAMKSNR
Chain of UniProt Q15349 (whole entry, looked up): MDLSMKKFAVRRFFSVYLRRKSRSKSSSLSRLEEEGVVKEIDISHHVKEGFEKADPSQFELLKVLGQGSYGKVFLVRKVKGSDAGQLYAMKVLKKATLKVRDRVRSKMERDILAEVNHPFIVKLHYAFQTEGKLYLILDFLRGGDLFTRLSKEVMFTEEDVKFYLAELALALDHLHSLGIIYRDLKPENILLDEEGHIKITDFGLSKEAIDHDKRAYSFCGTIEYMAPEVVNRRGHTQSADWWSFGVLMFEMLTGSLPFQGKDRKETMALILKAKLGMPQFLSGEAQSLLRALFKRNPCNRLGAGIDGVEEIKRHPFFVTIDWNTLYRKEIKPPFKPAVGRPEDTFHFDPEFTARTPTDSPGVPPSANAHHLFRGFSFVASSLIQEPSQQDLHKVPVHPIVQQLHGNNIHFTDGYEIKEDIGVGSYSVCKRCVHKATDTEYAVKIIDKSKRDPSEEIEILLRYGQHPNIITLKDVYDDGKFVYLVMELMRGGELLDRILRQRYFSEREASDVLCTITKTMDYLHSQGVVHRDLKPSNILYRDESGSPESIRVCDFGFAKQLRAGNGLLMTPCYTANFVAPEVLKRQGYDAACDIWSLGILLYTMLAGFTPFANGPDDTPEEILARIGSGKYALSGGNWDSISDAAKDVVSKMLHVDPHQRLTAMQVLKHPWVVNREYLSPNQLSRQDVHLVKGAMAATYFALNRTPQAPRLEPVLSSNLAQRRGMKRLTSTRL
Chain of UniProt P11362 (whole entry, looked up): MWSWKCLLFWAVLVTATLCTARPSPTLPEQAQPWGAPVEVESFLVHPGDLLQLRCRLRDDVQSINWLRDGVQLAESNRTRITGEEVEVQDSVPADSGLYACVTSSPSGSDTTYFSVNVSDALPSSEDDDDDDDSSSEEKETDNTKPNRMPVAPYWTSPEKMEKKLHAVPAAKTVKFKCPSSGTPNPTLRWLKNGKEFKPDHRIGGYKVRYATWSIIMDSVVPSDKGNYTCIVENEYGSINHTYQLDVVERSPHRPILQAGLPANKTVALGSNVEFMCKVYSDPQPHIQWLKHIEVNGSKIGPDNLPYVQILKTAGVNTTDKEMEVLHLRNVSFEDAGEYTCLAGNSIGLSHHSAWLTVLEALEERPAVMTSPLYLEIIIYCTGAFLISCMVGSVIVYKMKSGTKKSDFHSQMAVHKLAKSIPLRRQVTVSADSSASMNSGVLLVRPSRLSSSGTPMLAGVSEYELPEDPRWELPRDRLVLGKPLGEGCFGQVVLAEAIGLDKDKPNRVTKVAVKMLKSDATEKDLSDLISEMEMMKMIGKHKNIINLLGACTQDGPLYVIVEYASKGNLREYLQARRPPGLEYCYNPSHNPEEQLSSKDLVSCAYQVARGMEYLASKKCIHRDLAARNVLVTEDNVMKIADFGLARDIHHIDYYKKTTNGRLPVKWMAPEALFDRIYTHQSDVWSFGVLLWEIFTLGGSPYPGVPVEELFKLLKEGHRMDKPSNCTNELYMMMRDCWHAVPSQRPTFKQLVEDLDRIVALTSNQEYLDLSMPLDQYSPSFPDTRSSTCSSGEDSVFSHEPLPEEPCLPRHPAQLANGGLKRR
Chain of UniProt Q6PHR2 (whole entry, looked up): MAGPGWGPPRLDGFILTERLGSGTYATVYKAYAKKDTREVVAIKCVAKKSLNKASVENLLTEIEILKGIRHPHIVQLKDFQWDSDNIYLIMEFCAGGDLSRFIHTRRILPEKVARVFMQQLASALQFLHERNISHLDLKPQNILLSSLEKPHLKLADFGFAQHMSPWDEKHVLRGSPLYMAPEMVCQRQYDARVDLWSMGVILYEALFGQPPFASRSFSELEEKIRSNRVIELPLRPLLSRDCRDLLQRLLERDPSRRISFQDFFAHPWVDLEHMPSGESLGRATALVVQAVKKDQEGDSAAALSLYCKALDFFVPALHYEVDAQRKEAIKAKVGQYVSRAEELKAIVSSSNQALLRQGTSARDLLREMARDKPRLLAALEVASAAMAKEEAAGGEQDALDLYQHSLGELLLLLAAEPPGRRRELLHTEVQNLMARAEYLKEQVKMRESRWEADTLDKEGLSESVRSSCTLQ
Chain of UniProt P04049 (whole entry, looked up): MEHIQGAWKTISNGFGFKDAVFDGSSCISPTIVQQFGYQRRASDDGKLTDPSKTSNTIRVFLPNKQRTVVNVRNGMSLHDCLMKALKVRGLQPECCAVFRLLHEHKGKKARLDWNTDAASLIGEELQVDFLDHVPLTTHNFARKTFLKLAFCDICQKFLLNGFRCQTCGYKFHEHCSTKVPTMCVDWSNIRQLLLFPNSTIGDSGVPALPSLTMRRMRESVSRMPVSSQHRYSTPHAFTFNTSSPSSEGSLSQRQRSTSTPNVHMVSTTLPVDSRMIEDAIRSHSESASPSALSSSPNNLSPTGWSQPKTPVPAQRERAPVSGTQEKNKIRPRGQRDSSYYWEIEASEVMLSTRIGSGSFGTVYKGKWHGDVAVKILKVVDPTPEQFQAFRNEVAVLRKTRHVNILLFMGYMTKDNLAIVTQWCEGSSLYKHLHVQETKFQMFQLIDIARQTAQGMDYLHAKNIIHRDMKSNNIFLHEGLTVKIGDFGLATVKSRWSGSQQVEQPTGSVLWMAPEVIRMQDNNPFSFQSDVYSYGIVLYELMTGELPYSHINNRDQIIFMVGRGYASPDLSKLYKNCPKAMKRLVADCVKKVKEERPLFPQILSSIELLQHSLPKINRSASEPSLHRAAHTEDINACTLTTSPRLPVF

Study 1
SMILES: c1ccc(Oc2ccc(Nc3c4c(nc5ccccc35)CCC4)cc2)cc1
Organism: Leishmania donovani
Strain: DD8
parasite viability, resazurin; promastigotes; 0.16 µM — inhibition: 0% and 12% and -2% and 13%.
For parasite killing; promastigotes; 16.66 µM, 96 h: inhibition read 100%.
The inhibition was 99% (parasite killing; promastigotes; 16.66 µM, 24 h).
parasite killing; promastigotes; 33.33 µM, 72 h — inhibition: 100%.
For parasite viability, resazurin; promastigotes; 0.016 µM: inhibition read 0% and -2%.
It gave 1% and -1% for inhibition (parasite viability, resazurin; promastigotes; 0.033 µM).
It gave 15% and 16% for inhibition (parasite killing; intracellular amastigotes; 0.08 µM, 72 h).
It gave 100% for inhibition (parasite killing; intracellular amastigotes; 20 µM, 72 h).

Study 2
Compound: C[C@H](c1ccc(F)cc1)N(Cc1cccc(C(=O)O)c1)C(=O)c1cnc2ccccc2c1
Method: competition with immobilised ligand
Tested at: 1 µM
The remaining binding was 91% (Dual specificity protein kinase CLK1 (CLK1, Homo sapiens, UniProt P49759); cell-free assay).
The remaining binding was 100% (Ribosomal protein S6 kinase alpha-2, C-terminal kinase domain (RPS6KA2, Homo sapiens, UniProt Q15349); cell-free assay).
It gave 96% for remaining binding (Serine/threonine-protein kinase Nek10 (NEK10, Homo sapiens, UniProt Q6ZWH5); cell-free assay).
The remaining binding was 100% (Serine/threonine-protein kinase DCLK3 (DCLK3, Homo sapiens, UniProt Q9C098); cell-free assay).
For RAF proto-oncogene serine/threonine-protein kinase (RAF1, Homo sapiens, UniProt P04049); cell-free assay: remaining binding read 100%.
Non-receptor tyrosine-protein kinase TNK1 (TNK1, Homo sapiens, UniProt Q13470); cell-free assay — remaining binding: 100%.
It gave 100% for remaining binding (Mast/stem cell growth factor receptor Kit (KIT, Homo sapiens, UniProt P10721); cell-free assay).
Homeodomain-interacting protein kinase 2 (HIPK2, Homo sapiens, UniProt Q9H2X6); cell-free assay — remaining binding: 100%.
It gave 100% for remaining binding (Serine/threonine-protein kinase 38 (STK38, Homo sapiens, UniProt Q15208); cell-free assay).
It gave 100% for remaining binding (Mast/stem cell growth factor receptor Kit (KIT, Homo sapiens, UniProt P10721, D816V); cell-free assay).
Mitogen-activated protein kinase kinase kinase 11 (MAP3K11, Homo sapiens, UniProt Q16584); cell-free assay — remaining binding: 100%.
The remaining binding was 100% (Hepatocyte growth factor receptor (MET, Homo sapiens, UniProt P08581); cell-free assay).
For Mast/stem cell growth factor receptor Kit (KIT, Homo sapiens, UniProt P10721, V559D/V654A); cell-free assay: remaining binding read 100%.
For Dual specificity tyrosine-phosphorylation-regulated kinase 1A (DYRK1A, Homo sapiens, UniProt Q13627); cell-free assay: remaining binding read 100%.
It gave 100% for remaining binding (Uncharacterized serine/threonine-protein kinase SBK3 (SBK3, Homo sapiens, UniProt P0C264); cell-free assay).
It gave 100% for remaining binding (Epidermal growth factor receptor (EGFR, Homo sapiens, UniProt P00533, L861Q); cell-free assay).
The remaining binding was 100% (1-phosphatidylinositol 3-phosphate 5-kinase (PIKFYVE, Homo sapiens, UniProt Q9Y2I7); cell-free assay).
The remaining binding was 90% (Phosphatidylinositol 4-phosphate 3-kinase C2 domain-containing subunit beta (PIK3C2B, Homo sapiens, UniProt O00750); cell-free assay).
For Tyrosine-protein kinase ABL1, phosphorylated (ABL1, Homo sapiens, UniProt P00519, Q252H); cell-free assay: remaining binding read 89%.
Calcium/calmodulin-dependent protein kinase type II subunit alpha (CAMK2A, Homo sapiens, UniProt Q9UQM7); cell-free assay — remaining binding: 97%.
The remaining binding was 100% (Dual specificity mitogen-activated protein kinase kinase 2 (MAP2K2, Homo sapiens, UniProt P36507); cell-free assay).
Serine/threonine-protein kinase ICK (CILK1, Homo sapiens, UniProt Q9UPZ9); binding — remaining binding: 100%.
The remaining binding was 100% (Serine/threonine-protein kinase PAK 2 (PAK2, Homo sapiens, UniProt Q13177); cell-free assay).
It gave 100% for remaining binding (Epidermal growth factor receptor (EGFR, Homo sapiens, UniProt P00533, del752-759); cell-free assay).
Receptor-interacting serine/threonine-protein kinase 1 (RIPK1, Homo sapiens, UniProt Q13546); cell-free assay — remaining binding: 100%.

Study 3
SMILES: Cn1cnc(Cn2ccc3ccc(CNCc4[nH]c5ccccc5c4[C@H]4NC(=O)c5ccc(O)cc54)cc32)c1
Effect on: binding
Action: competitor
Method: NanoBRET
Cells: HEK293
KRAS G12C: GTPase KRas (KRAS, Homo sapiens, UniProt P01116, G12C)
GTPase KRas (KRAS, Homo sapiens, UniProt P01116); 3.05 nM — normalized BRET: 103% and 75% and 90% and 99%.
KRAS G12C; 2.22 µM, 1 h; baseline: vehicle and 20 µM BI compound — normalized BRET: 19% and 17.6% and 15.4% and 17.2%.
KRAS G12C; 1.02 nM, 4 h; baseline: vehicle and 20 µM BI compound — normalized BRET: 76.8% and 96.4% and 90.3% and 79.3%.
The normalized BRET was 114% and 84.8% and 97.6% and 97.8% (KRAS G12C; 1.02 nM, 3 h; baseline: vehicle and 20 µM BI compound).
The normalized BRET was 43% and 41.5% and 50.9% and 49% (KRAS G12C; 741 nM, 4 h; baseline: vehicle and 20 µM BI compound).
For KRAS G12C; 1.02 nM, 1 h; baseline: vehicle and 20 µM BI compound: normalized BRET read 89.5% and 95.2% and 99.5% and 90.1%.
KRAS G12C; 339 pM, 4 h; baseline: vehicle and 20 µM BI compound — normalized BRET: 83.8% and 84.4% and 85.5% and 99.2%.

Study 4
SMILES: N#Cc1cnc2cnc(NCc3cccnc3)cc2c1Nc1ccc(F)c(Cl)c1
Effect on: enzyme activity
Action: inhibitor
Tested at: 0.5 µM
Baseline: control
Activin receptor type-1B (ACVR1B, Homo sapiens, UniProt P36896) — remaining activity: 99%.
It gave 95.5% for remaining activity (Rhodopsin kinase GRK7 (GRK7, Homo sapiens, UniProt Q8WTQ7)).
The remaining activity was 83.4% (Fibroblast growth factor receptor 1 (FGFR1, Homo sapiens, UniProt P11362)).
Casein kinase I isoform gamma-3 (CSNK1G3, Homo sapiens, UniProt Q9Y6M4) — remaining activity: 103%.
Tyrosine-protein kinase Mer (MERTK, Homo sapiens, UniProt Q12866) — remaining activity: 67.2%.
For Mitogen-activated protein kinase kinase kinase 14 (MAP3K14, Homo sapiens, UniProt Q99558): remaining activity read 118%.
For Serine/threonine-protein kinase TAO2 (TAOK2, Homo sapiens, UniProt Q9UL54): remaining activity read 86.1%.
For Serine/threonine-protein kinase A-Raf (ARAF, Homo sapiens, UniProt P10398): remaining activity read 106%.
Serine/threonine-protein kinase ULK3 (ULK3, Homo sapiens, UniProt Q6PHR2) — remaining activity: 72%.
For Glycogen synthase kinase-3 beta (GSK3B, Homo sapiens, UniProt P49841): remaining activity read 99.8%.
Serine/threonine-protein kinase Nek1 (NEK1, Homo sapiens, UniProt Q96PY6) — remaining activity: 20.5%.
For Macrophage-stimulating protein receptor (MST1R, Homo sapiens, UniProt Q04912): remaining activity read 89.6%.
For Ephrin type-A receptor 3 (EPHA3, Homo sapiens, UniProt P29320): remaining activity read 122%.
It gave 102% for remaining activity (Serine/threonine-protein kinase ULK2 (ULK2, Homo sapiens, UniProt Q8IYT8)).

Mixed results
For `COc1cc(C(=O)OCCCN2CCCN(CCCOC(=O)c3cc(OC)c(OC)c(OC)c3)CC2)cc(OC)c1OC`, the adenosine uptake was 0.977 and 0.672 and 1 and 1.08 and 1.04 and 1.14 and 0.818 (Equilibrative nucleoside transporter 1 (SLC29A1, Homo sapiens, UniProt Q99808); inhibitor; 10 pM, unit not given, with: [3H]adenosine; baseline: normalised control).
